Results collected from several papers.
Each line is one published result; not all experiments were run side by side.
Oprk1: Kappa-type opioid receptor (Oprk1, Rattus norvegicus, UniProt P34975)
Sigmar1: Sigma non-opioid intracellular receptor 1 (Sigmar1, Rattus norvegicus, UniProt Q9R0C9)
Phospholipase D2: Phospholipase D2 (Homo sapiens, UniProt O14939)

SMILES	target	assay	system	setting	how to read	selectivity ratio
CC(C)[C@H]1NC(=O)[C@H](CO)NC(=O)c2cc3cc(c2)C(=O)NC[C@H](NC(=O)[C@H](Cc2c[nH]cn2)NC(=O)[C@H](Cc2ccc(C(F)(F)P(=O)(O)O)cc2)NC(=O)[C@@H]2CCCN2C1=O)C(=O)N[C@@H](Cc1ccccc1)C(=O)N[C@@H](Cc1ccc2ccccc2c1)C(=O)N[C@@H](CCCNC(=N)N)C(=O)N[C@@H](CCCNC(=N)N)C(=O)N[C@@H](CCCNC(=N)N)C(=O)N[C@@H](CCCNC(=N)N)C(=O)N[C@H](C(=O)N[C@@H](CCCCN)C(N)=O)CNC3=O	Tyrosine-protein phosphatase non-receptor type 1 (PTPN1, Homo sapiens, UniProt P18031)	enzyme activity	–	–	relative to: PTPN1 over TCPTP	17 fold
CC(C)NC(=O)[C@H](CCc1ccccc1)NC(=O)[C@H](CC(=O)NCC(C)(C)C)NC(=O)CCc1ccccc1	Proteasome component C5/PSMB5 (Homo sapiens, UniProt P20618+P28074)	Proteasome-Glo β5	B-cell lymphoma lines	1 h	relative to: IC50 differences among OCI-Ly10, WSUDLCL2 and Karpas-1106P	~22 fold
CC(=O)C1=C(C)NC(SCCCSc2nnc(Cc3ccccc3Nc3c(Cl)cccc3Cl)n2-c2ccc(Cl)c(Cl)c2)=NC1c1ccc([N+](=O)[O-])cc1 (stereo not drawn)	Amine oxidase [flavin-containing] B (MAOB, Homo sapiens, UniProt P27338)	fluorometric	–	–	relative to: IC50 hMAO-A over IC50 hMAO-B	0.1
COC(=O)N(C)[C@@H](Cc1ccccc1)C(=O)N[C@@H](Cc1ccccc1)C(=O)N[C@@H](Cc1ccc(O)cc1)C(=O)N[C@@H](CCCNC(=N)N)C(=O)N[C@@H](CC(C)C)C(=O)N[C@@H](CCCNC(=N)N)C(=O)N[C@@H](CCCNC(=N)N)C(=O)N[C@H](C)C(=O)N[C@@H](CCCNC(=N)N)C(=O)N1CCC[C@H]1C(=O)N[C@@H](CCCCN)C(N)=O	Oprk1	binding, [3H]diprenorphine competition	CHO cells	–	relative to: Ki mu over Ki kappa, higher = more kappa-selective	224
CCCC(=O)c1ccc2c(c1)sc(=O)n2CCCCCN1CCCCCC1	Sigmar1	–	–	–	relative to: Ki sigma-2 over Ki sigma-1	0.4
NN[C@@H](CCCC[C@H](NN)C(=O)O)C(=O)O	4-aminobutyrate aminotransferase, mitochondrial (Rattus norvegicus, UniProt P50554)	–	rat brain homogenate	–	relative to: GABA-T IC50 over CBS Ki	12 fold
O=C(NCCN1CCC2(CC1)C(=O)NCN2Cc1ccncc1)c1ccc2ccccc2c1	Phospholipase D2	–	–	–	relative to: PLD1 IC50 over Phospholipase D2 IC50	28 fold
Cc1cc(N)nc(CC2CNCC2OCCNCC(F)(F)C2CCCCN2)c1 (stereo not drawn)	Nitric oxide synthase 3 (NOS3, Bos taurus, UniProt P29473)	hemoglobin capture	–	–	relative to: Ki eNOS over Ki nNOS	24
CCOc1cncc(-c2ccc(NC(=O)C3(c4ccnc(NS(=O)(=O)C5CC5)n4)CCOCC3)nc2)n1	CTP synthase 1 (Homo sapiens, UniProt P17812)	enzyme activity	human	–	relative to: CTPS2 over target IC50	1360
CCCC(=O)c1ccc2c(c1)sc(=O)n2CCCN1CCCCCC1	Sigmar1	–	–	–	relative to: Ki sigma-2 over Ki sigma-1	39
CN[C@@H](C)C(=O)N[C@H]1CN(C(=O)Cc2ccccc2)CC[C@H]2CC[C@@H](C(=O)NCc3ccc(Br)cc3)N2C1=O	Baculoviral IAP repeat-containing protein 2, BIR3 domain (BIRC2, Homo sapiens, UniProt Q13490)	fluorescence polarization	–	BIR3 domain	relative to: cIAP1 over XIAP	> 900
CCC(=O)c1ccc2c(c1)sc(=O)n2CCCCN1CCCCCC1	Sigmar1	–	–	–	relative to: Ki sigma-2 over Ki sigma-1	3
O=C(NCCN1CCC2(CC1)C(=O)NCN2Cc1cccnc1)c1cc2ccccc2[nH]1	Phospholipase D2	–	–	–	relative to: PLD1 IC50 over PLD2 IC50?	~69 fold
CC(=O)NCC(=O)N(C)[C@@H](Cc1ccccc1)C(=O)N[C@@H](Cc1ccccc1)C(=O)N[C@@H](Cc1c[nH]c2ccccc12)C(=O)N[C@@H](CCCNC(=N)N)C(=O)N[C@@H](CC(C)C)C(=O)N[C@@H](CCCNC(=N)N)C(=O)N[C@@H](CCCNC(=N)N)C(=O)N[C@H](C)C(=O)N[C@@H](CCCNC(=N)N)C(=O)N1CCC[C@H]1C(=O)N[C@@H](CCCCN)C(N)=O	Oprk1	binding, [3H]diprenorphine competition	CHO cells	–	relative to: Ki mu over Ki kappa, higher = more kappa-selective	172
CCCC(=O)c1ccc2c(c1)sc(=O)n2CCCCCCN1CCCCCC1	Sigmar1	–	–	–	relative to: Ki sigma-2 over Ki sigma-1	0.2
N=C(N)NCCC[C@@H]1NC(=O)[C@H](CCCNC(=N)N)NC(=O)[C@H](NC(=O)[C@H](Cc2ccccc2)NC(=O)CNC(=O)CNC(=O)[C@H](Cc2ccc(O)cc2)NCc2ccccc2)CC(=O)NCC[C@@H](C(=O)N[C@@H](CCCNC(=N)N)C(=O)N2CCC[C@H]2C(=O)N[C@@H](CCCCN)C(N)=O)NC1=O	Oprk1	binding	–	–	relative to: Ki(MOR) over Ki(KOR)	8
CCCCc1ccc2c(c1)sc(=O)n2CCCN1CCCCCC1	Sigmar1	–	–	–	relative to: Ki sigma-2 over Ki sigma-1	7
CC(C)C[C@H](NC(=O)[C@H](CCCNC(=N)N)NC(=O)[C@H](Cc1c[nH]c2ccccc12)NC(=O)[C@H](Cc1ccccc1)NC(=O)[C@H](Cc1ccccc1)N(C)C(=O)COc1ccccc1)C(=O)N[C@@H](CCCNC(=N)N)C(=O)N[C@@H](CCCNC(=N)N)C(=O)N[C@H](C)C(=O)N[C@@H](CCCNC(=N)N)C(=O)N1CCC[C@H]1C(=O)N[C@@H](CCCCN)C(N)=O	Oprk1	binding, [3H]diprenorphine competition	CHO cells	–	relative to: Ki mu over Ki kappa, higher = more kappa-selective	94
NC[C@@H]1[C@@H](O)[C@@H](O)[C@H]2[C@H](O)CCCN21	Alpha-mannosidase 2 (Homo sapiens, UniProt Q16706)	inhibitor	–	added: fluorogenic mannoside substrate	relative to: lysosomal over Golgi mannosidase Ki	3.7
O=C(NCCN1CCC2(CC1)C(=O)NCN2C(=O)C1CCC1)c1ccc2ccccc2c1	Phospholipase D2	–	–	–	relative to: PLD1 IC50 over Phospholipase D2 IC50	12.5 fold
CCCc1ccc2c(c1)sc(=O)n2CCCCCCN1CCCCCC1	Sigmar1	–	–	–	relative to: Ki sigma-2 over Ki sigma-1	0.4
COc1ccc(C[C@@H]2NC(=O)CC3(CCCCC3)SSC[C@@H](C(=O)N3CCC[C@H]3C(=O)N[C@@H](CCCNC(=N)N)C(=O)NCC(N)=O)NC(=O)[C@H](CC(N)=O)NC(=O)[C@H](CCC(N)=O)NC(=O)[C@H](Cc3ccccc3)NC2=O)cc1	oxytocin receptor (Mesocricetus auratus, UniProt A0A1U7Q6Y0)	competition binding	hamster brain sections	–	relative to: OTR over V1aR Ki	31.1
CCC(=O)c1ccc2c(c1)sc(=O)n2CCCN1CCCCCC1	Sigmar1	–	–	–	relative to: Ki sigma-2 over Ki sigma-1	83
COC(=O)N(C)[C@@H](Cc1ccccc1)C(=O)N[C@@H](Cc1ccccc1)C(=O)N[C@@H](Cc1ccc2ccccc2c1)C(=O)N[C@@H](CCCNC(=N)N)C(=O)N[C@@H](CC(C)C)C(=O)N[C@@H](CCCNC(=N)N)C(=O)N[C@@H](CCCNC(=N)N)C(=O)N[C@H](C)C(=O)N[C@@H](CCCNC(=N)N)C(=O)N1CCC[C@H]1C(=O)N[C@@H](CCCCN)C(N)=O	Oprk1	binding, [3H]diprenorphine competition	CHO cells	–	relative to: Ki mu over Ki kappa, higher = more kappa-selective	2
C[C@@]12COc3ccc(OCc4ccccc4)cc3[C@@H]1CCN2	Sigma non-opioid intracellular receptor 1 (SIGMAR1, Homo sapiens, UniProt Q99720)	binding, radioligand binding	–	–	relative to: sigma-1 over TMEM97 (sigma-2)	4 fold
COC(=O)N(C)[C@@H](Cc1ccccc1)C(=O)N[C@@H](Cc1ccccc1)C(=O)N[C@@H](CC1CCCCC1)C(=O)N[C@@H](CCCNC(=N)N)C(=O)N[C@@H](CC(C)C)C(=O)N[C@@H](CCCNC(=N)N)C(=O)N[C@@H](CCCNC(=N)N)C(=O)N[C@H](C)C(=O)N[C@@H](CCCNC(=N)N)C(=O)N1CCC[C@H]1C(=O)N[C@@H](CCCCN)C(N)=O	Oprk1	binding, [3H]diprenorphine competition	CHO cells	–	relative to: Ki mu over Ki kappa, higher = more kappa-selective	227
N[C@@H](CCC(=O)N[C@@H](CS[Se]Cc1ccc(C(=O)Nc2cc(C(F)(F)F)c(Br)c(C(F)(F)F)c2)cc1)C(=O)NCC(=O)O)C(=O)O	Cathepsin B (CTSB, Homo sapiens, UniProt P07858)	enzyme activity, inhibitor	–	added: glutathione 1 mM	relative to: IC50 cathepsin B over mPTPA (M. tuberculosis)	> 100

Excerpt of the above:
SMILES	target	assay	system	setting	how to read	selectivity ratio
CCC(=O)c1ccc2c(c1)sc(=O)n2CCCCN1CCCCCC1	Sigmar1	–	–	–	relative to: Ki sigma-2 over Ki sigma-1	3
CCOc1cncc(-c2ccc(NC(=O)C3(c4ccnc(NS(=O)(=O)C5CC5)n4)CCOCC3)nc2)n1	CTP synthase 1 (Homo sapiens, UniProt P17812)	enzyme activity	human	–	relative to: CTPS2 over target IC50	1360
